Published values collected from several papers.
Numbered parts are unrelated; each lists some results of a single study.
Chain of UniProt Q96PY6 (whole entry, looked up): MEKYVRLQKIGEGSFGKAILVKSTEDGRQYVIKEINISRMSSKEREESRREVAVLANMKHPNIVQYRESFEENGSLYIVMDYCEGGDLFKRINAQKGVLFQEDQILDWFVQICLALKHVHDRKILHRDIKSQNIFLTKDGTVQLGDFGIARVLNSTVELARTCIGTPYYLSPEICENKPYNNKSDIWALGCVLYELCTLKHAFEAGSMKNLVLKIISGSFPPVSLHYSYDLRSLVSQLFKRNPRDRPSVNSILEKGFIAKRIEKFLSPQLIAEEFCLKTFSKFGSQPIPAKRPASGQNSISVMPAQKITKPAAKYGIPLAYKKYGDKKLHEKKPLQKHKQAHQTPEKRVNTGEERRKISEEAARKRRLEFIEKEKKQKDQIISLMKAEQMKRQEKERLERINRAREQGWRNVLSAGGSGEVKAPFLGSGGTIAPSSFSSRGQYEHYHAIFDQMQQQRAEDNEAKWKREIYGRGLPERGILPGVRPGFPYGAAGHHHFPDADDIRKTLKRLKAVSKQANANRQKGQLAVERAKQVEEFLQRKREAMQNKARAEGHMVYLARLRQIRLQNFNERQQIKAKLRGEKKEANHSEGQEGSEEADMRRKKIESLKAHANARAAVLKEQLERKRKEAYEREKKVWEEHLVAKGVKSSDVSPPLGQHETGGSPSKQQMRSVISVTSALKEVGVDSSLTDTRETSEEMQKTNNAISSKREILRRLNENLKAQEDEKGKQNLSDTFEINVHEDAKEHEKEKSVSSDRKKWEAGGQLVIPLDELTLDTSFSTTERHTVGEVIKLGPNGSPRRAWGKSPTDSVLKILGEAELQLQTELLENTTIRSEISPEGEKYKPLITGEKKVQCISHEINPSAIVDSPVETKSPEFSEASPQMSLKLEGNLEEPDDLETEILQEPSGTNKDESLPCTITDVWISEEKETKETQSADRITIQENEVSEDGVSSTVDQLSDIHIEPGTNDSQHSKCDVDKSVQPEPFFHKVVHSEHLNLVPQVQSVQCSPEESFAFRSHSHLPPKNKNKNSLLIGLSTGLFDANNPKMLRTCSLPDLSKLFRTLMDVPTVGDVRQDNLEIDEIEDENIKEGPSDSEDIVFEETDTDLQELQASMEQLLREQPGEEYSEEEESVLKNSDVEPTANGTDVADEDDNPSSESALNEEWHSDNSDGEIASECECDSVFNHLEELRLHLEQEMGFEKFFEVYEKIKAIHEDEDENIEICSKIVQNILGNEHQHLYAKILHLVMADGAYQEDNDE
Chain of UniProt P50613 (whole entry, looked up): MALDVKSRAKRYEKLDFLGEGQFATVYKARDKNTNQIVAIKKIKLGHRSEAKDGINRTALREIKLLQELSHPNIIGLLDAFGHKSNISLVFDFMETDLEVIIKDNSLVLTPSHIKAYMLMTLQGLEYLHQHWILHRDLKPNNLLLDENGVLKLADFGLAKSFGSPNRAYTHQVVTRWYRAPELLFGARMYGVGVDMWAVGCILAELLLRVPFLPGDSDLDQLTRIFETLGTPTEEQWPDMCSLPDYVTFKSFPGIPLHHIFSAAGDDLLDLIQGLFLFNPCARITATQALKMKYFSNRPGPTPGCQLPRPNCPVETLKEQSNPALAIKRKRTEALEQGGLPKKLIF
Chain of UniProt P30530 (whole entry, looked up): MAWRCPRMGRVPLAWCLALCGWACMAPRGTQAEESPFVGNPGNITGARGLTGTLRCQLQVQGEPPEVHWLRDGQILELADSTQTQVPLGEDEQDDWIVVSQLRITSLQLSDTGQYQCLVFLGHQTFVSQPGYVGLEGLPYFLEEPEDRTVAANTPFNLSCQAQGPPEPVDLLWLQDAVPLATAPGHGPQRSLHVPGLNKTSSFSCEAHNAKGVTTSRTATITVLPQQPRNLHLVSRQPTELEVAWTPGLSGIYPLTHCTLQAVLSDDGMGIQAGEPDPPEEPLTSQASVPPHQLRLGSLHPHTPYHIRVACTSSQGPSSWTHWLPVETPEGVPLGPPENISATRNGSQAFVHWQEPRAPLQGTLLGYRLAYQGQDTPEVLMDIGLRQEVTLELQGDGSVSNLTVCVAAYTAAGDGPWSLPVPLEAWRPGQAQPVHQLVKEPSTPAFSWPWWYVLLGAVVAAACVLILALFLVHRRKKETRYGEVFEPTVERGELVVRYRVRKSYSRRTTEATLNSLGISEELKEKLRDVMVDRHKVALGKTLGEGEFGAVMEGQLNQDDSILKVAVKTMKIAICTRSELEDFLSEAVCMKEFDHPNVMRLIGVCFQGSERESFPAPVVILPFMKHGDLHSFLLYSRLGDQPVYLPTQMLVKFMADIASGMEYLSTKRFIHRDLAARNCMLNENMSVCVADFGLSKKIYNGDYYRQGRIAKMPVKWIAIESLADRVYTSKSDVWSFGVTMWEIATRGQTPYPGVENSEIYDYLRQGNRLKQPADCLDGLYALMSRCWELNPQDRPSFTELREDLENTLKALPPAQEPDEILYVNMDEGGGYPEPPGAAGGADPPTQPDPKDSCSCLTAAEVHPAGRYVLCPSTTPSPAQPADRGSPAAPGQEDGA
Chain of UniProt P0C1S8 (whole entry, looked up): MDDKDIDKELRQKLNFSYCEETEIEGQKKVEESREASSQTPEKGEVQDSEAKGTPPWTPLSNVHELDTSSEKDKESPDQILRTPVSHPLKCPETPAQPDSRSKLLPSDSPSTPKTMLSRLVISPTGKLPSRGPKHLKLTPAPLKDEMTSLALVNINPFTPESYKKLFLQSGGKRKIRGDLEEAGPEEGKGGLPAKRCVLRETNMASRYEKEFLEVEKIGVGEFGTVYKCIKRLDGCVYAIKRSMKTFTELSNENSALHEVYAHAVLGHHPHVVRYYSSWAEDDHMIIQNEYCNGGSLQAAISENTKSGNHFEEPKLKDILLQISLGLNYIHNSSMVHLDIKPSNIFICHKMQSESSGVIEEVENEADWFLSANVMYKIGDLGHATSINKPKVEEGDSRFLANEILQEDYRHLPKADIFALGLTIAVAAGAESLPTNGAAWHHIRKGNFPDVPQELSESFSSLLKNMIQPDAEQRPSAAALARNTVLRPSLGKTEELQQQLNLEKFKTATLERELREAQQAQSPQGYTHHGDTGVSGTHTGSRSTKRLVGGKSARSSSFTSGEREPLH

Series 1
SMILES: O=C(Nc1ccccc1)Nc1cccc(Oc2ccc3nccn3n2)c1
Tested at: 1 µM
target	test	setting	remaining binding [%]
SIK1 (Homo sapiens, UniProt P57059)	binding, competition with immobilised ligand		100
TGFBR1 (Homo sapiens, UniProt P36897)	binding, competition with immobilised ligand		95
NEK1 (Homo sapiens, UniProt Q96PY6)	binding		100
ACVR1 (Homo sapiens, UniProt Q04771)	binding, competition with immobilised ligand		100
JAK2 (Homo sapiens, UniProt O60674)	cell-free binding	JH1 catalytic domain	93
MAPK15 (Homo sapiens, UniProt Q8TD08)	binding, competition with immobilised ligand		100
BMX (Homo sapiens, UniProt P51813)	binding, competition with immobilised ligand		100
TTK (Homo sapiens, UniProt P33981)	binding, competition with immobilised ligand		100
STK17A (Homo sapiens, UniProt Q9UEE5)	binding		100
DMPK (Homo sapiens, UniProt Q09013)	binding, competition with immobilised ligand		96
WEE2 (Homo sapiens, UniProt P0C1S8)	binding, competition with immobilised ligand		59
MAP4K5 (Homo sapiens, UniProt Q9Y4K4)	binding, competition with immobilised ligand		100
AXL (Homo sapiens, UniProt P30530)	cell-free binding		93
KIT (Homo sapiens, UniProt P10721, D816H)	binding		100
CDK7 (Homo sapiens, UniProt P50613)	binding, competition with immobilised ligand		100
DAPK3 (Homo sapiens, UniProt O43293)	binding		100
MUSK (Homo sapiens, UniProt O15146)	cell-free binding		100

Series 2
SMILES: C[C@@H]1CN(c2ccc(-c3cc(C(=O)NCCOCCOCCOCCOCCNC(=O)/C=C/c4[nH]cc(C(=O)N[C@@H](CC(N)=O)c5ccc(F)c(Cl)c5)c4-c4ccc(Cl)cc4F)ccc3F)cc2NC(=O)c2c[nH]c(=O)cc2C(F)(F)F)C[C@H](C)N1C
Effect on: thermal unfolding
Method: differential scanning fluorimetry
Tested at: 5.5 µM
Reading: higher = more unfolded
WDR5: WD repeat-containing protein 5 (WDR5, Homo sapiens, UniProt P61964)
DCAF1: DDB1- and CUL4-associated factor 1 (DCAF1, Homo sapiens, UniProt Q9Y4B6)
Chain of UniProt Q9Y4B6 (whole entry, looked up): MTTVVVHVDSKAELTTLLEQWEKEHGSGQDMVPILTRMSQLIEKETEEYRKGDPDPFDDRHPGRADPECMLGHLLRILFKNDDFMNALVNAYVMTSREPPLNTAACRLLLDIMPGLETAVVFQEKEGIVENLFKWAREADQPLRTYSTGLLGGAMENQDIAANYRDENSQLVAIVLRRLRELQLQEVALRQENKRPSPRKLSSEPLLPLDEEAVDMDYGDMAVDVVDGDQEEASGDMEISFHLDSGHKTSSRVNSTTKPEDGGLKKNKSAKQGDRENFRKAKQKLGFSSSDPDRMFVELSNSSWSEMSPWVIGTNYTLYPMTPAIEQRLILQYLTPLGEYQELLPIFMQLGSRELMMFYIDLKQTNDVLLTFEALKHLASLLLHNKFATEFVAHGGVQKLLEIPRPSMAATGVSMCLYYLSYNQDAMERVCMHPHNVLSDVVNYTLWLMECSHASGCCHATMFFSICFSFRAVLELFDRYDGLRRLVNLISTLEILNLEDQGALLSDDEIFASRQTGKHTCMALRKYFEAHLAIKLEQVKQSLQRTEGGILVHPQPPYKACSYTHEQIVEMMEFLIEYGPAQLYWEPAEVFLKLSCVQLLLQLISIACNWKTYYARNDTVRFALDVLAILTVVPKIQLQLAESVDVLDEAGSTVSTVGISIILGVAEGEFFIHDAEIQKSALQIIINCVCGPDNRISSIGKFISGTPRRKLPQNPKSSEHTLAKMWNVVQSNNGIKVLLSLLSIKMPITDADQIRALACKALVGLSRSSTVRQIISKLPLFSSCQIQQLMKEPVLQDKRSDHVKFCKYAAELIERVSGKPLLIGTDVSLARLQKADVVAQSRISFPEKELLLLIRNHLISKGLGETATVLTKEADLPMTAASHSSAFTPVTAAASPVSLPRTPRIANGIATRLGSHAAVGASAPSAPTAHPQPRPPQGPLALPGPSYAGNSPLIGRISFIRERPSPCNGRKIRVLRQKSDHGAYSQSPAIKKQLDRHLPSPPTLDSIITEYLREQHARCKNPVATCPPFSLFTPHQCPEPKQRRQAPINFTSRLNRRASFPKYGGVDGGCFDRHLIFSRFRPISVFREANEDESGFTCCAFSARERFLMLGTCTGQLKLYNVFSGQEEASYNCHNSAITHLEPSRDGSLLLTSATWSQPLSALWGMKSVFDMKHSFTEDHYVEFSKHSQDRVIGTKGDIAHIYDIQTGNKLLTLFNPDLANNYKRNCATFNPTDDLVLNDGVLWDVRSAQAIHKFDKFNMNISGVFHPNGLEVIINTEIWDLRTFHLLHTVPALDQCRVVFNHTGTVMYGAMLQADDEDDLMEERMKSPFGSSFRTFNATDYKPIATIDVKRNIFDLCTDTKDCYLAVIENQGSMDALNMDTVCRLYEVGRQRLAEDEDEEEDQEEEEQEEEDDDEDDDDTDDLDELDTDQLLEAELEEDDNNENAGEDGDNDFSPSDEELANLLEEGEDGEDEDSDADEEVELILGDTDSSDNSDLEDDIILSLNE
target	setting	SYPRO Orange fluorescence [a.u.]
WDR5	83.61 °C	49800
DCAF1	70.41 °C	55400
DCAF1	73.81 °C	51400
WDR5	71.21 °C	18000
DCAF1	47.4 °C	14100
DCAF1	41.4 °C	12000
DCAF1	46.4 °C	13600
DCAF1	38.8 °C	11200
WDR5	74.81 °C	25400
DCAF1	34.4 °C	10000
WDR5	57.21 °C	16500

Series 3
Compound: CCN1/C(=C/C=C2\CCCC(/C=C/C3=[N+](CC)c4ccccc4C3(C)C)=C2NCCCCCCCCN2CCC(Nc3nc4ccccc4n3Cc3ccc(F)cc3)CC2)C(C)(C)c2ccccc21
Cell line: U-87 MG
Tested at: concentration not given
Baseline: DMSO
test	log2 fold change
item: CDKN2AIP mRNA	1.11
item: PNLIPRP3 mRNA	3.77
item: RELB mRNA	1.6
item: TENT5A mRNA	-1.41
item: PEA15 mRNA	1.4
item: SP140 mRNA	-0.903
item: IL23A mRNA	3.23
item: TAX1BP1 mRNA	0.903
item: NINJ1 mRNA	1.65
item: ADAM17 mRNA	0.976
item: ERMP1 mRNA	-0.828
item: TMTC4 mRNA	-1.18
item: ABCB10 mRNA	-1.23
item: PTP4A1 mRNA	0.816
item: AMD1 mRNA	-1.09
item: ASB9 mRNA	-2.8

Series 4
SMILES: Cc1ccc(O)c(C)c1-c1cnc2[nH]c(-c3cnc(N4CCC5(CC4)CC(CN4CCN(c6ccc(NC7CCC(=O)NC7=O)cc6F)CC4)C5)nc3)cc2c1C#N (stereo not drawn)
Target: Membrane-associated tyrosine- and threonine-specific cdc2-inhibitory kinase (PKMYT1, Homo sapiens, UniProt Q99640)
Chain of UniProt Q99640 (whole entry, looked up): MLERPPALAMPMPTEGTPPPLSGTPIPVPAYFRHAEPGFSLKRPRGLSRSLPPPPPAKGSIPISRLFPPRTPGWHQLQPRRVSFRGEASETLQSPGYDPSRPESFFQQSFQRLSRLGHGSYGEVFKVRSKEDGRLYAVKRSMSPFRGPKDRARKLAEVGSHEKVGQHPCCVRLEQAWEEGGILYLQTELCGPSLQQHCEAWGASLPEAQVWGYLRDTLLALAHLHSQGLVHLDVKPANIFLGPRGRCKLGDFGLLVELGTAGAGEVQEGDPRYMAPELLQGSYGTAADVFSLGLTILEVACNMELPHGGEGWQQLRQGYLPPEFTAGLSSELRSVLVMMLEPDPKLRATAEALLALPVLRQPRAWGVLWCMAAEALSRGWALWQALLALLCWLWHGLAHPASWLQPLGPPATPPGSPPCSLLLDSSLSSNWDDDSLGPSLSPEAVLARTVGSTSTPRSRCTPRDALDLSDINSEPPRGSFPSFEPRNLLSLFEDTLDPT
test	setting	inhibition
cell-free assay, inhibitor, TR-FRET	4.12 nM	33.5%
cell-free assay, inhibitor, TR-FRET	460 pM	-4.29%
	0.00046 µM	-3.82%
	0.01235 µM	75.1%
cell-free assay, inhibitor, TR-FRET	51 pM	-8.61%
	1 µM	99.6%
cell-free assay, inhibitor, TR-FRET	0.1111 µM	97.7%
cell-free assay, inhibitor, TR-FRET	37.04 nM	93.4%
	0.00137 µM	7.24%
	0.03704 µM	94%

Repeated from above (series 2):
target	setting	SYPRO Orange fluorescence [a.u.]
DCAF1	38.8 °C	11200
WDR5	74.81 °C	25400
DCAF1	34.4 °C	10000
WDR5	57.21 °C	16500
